{"data": "Measurements from different studies", "note": "Every numbered part comes from another study and shows a few of its results, in no order. Positions count from the first letter of the parent shown."}
{"data": "Series 1", "target": "CCNB3, cyclin fold, Cln2 fusion (human)", "technique": "yeast growth competition, sequencing", "sample": "yeast", "setting": "weak parent motif", "reference": "not given", "direction": "higher = stronger binding", "starting sequence": "ORC1 docking peptide (human); PRARKRLELGNLG; partner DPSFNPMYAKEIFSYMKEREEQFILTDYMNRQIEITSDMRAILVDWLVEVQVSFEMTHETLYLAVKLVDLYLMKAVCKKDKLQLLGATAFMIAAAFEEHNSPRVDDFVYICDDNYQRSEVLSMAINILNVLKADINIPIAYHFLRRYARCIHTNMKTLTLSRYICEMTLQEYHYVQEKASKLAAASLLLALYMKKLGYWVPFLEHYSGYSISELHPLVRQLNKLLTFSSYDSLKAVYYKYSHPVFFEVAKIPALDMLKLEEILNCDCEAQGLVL"}
{"Change": "P1K", "normalised enrichment score": 0.595}
{"Change": "R6I", "normalised enrichment score": 0.559}
{"Change": "L9R", "normalised enrichment score": 0.35}
{"Change": "L12S", "normalised enrichment score": 0.171}
{"Change": "R6E", "normalised enrichment score": 0.208}
{"Change": "P1F", "normalised enrichment score": 0.103}
{"Change": "L12R", "normalised enrichment score": -0.355}
{"data": "Series 2", "target": "TAR DNA-binding protein 43, full length, His tag (TARDBP, Homo sapiens, UniProt Q13148, residues 1-414)", "technique": "RNA Bind-n-Seq", "form": "RNA", "sample": "in vitro", "tested at": "20 nM", "setting": "6-mer, flanks averaged, single round", "together with": "150 mM LiCl", "reference": "input library", "direction": "higher = stronger binding"}
{"Strand": "CCCGGU", "6-mer enrichment (R)": 0.991}
{"Strand": "GCAUGA", "6-mer enrichment (R)": 1}
{"Strand": "CAUGGA", "6-mer enrichment (R)": 0.915}
{"Strand": "AUCUCA", "6-mer enrichment (R)": 0.806}
{"Strand": "GAGACG", "6-mer enrichment (R)": 0.992}
{"Strand": "ACUUAG", "6-mer enrichment (R)": 0.857}
{"data": "Series 3", "target": "RING finger protein unkempt homolog, zinc fingers 1-6, GST-SBP tag (UNK, Homo sapiens, UniProt Q9C0B0, residues 30-357)", "technique": "RNA Bind-n-Seq", "form": "RNA", "sample": "in vitro", "tested at": "not given", "setting": "RNA with constant flanks, human-mouse chimeric sites, ends assumed", "reference": "input RNA pool", "direction": "higher = stronger binding", "all sequences stand within": "GGGAGUUCUACAGUCCGACGAUC … CAACAGAGGAUUGAGCAUCA", "Target sequence (chain)": "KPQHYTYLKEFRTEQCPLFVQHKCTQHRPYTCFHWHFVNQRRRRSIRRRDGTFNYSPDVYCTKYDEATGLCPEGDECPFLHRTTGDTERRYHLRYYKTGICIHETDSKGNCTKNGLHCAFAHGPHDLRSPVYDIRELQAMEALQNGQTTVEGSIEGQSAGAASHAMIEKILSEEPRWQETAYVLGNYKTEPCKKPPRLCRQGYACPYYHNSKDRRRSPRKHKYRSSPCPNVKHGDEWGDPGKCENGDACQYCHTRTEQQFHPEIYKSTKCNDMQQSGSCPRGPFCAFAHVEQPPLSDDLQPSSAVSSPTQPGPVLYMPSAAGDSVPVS"}
{"Strand": "UAAGUCCAUUUGUAAGCCUUCGCUCAUAAAGUUUUAAAUUCUGGACCAAUAGUGUUUGUUUCCUGAUUAUUGUAUCCAAUACUUUGCCUAGUAUGUAACUCAUGCUUACUGAUAAUAAAA", "bound/input enrichment": "0.551 ratio"}
{"Strand": "AAAGUGAUGACUAUGUUUGUCCAACGACAGGUGUUUGCGGAGAGCAAAGAUGAGAUUGCGUUAGUCCUCUAUGGCACAGAUGGCACUGAUAAUGCCCUUUCUGGUGGGGACCAGUAUCAG", "bound/input enrichment": "0.24 ratio"}
{"Strand": "UCAGAAGCUGUGCUGGGUCACUUUUCAUAUCCAGAUCCUUCACAGUGGACAGAUGAAGAAUUAGGUAUCCCUCCUGAUGACGAGGACUGACACUGUAAACUCUCUGGACGAGUAGGAGCA", "bound/input enrichment": "0.73 ratio"}
{"Strand": "GUAGCUGGGACUACAGAAAUGCUGGUAGUGCUCCGGCCUUGCUGAUGACUUCUGAUGUCCCAGCAAAUGUUGGCAUUGUUGACUGCUGAGAAGAUACUUCUGAGGACCCACGUCUAAGGU", "bound/input enrichment": "0.0618 ratio"}
{"Strand": "CCCUCCCCGGGCCACCCACCCCUCCCGGCUCCCCGCCAGAGCAAGGUUUUCUUCUUAUUUCAUAGCCAAUAAGAAAAAUGUUCUACGCACAUUUUGUCCUCAGUAAACGAGGGCCUCUGG", "bound/input enrichment": "1.92 ratio"}
{"Strand": "UCAGUCUUUUUGUACAGCUUUGUAAAUUGUAUAGCUUUUUAUAUUGCCAUGUUUAUUUUGUUUGGGUAAUUUGGUUCAUUAAGUACAUAGCUAAGGUAAUGAACAUCUUUUUCAGUAAUU", "bound/input enrichment": "1.22 ratio"}
{"data": "Other studies, line by line"}
{"Molecule": "PhoQ, residues 284 288 289 292 302 303 TSTLRA", "target": "PhoP, residues 12 14 15 18 19 VHSCL (Escherichia coli, UniProt P23836)", "test": "Sort-seq, item: YFP reporter", "test system": "E. coli", "setting": "PhoQ-PhoP variant library, together with: 10 µM Mg2+", "how to read": "reference: high Mg2+ state, higher = stronger signaling", "quantity": "fold induction", "value": 1.2}
{"note": "Excerpt of the above (series 2):"}
{"Strand": "CAUGGA", "6-mer enrichment (R)": 0.915}
{"Strand": "ACUUAG", "6-mer enrichment (R)": 0.857}
{"Strand": "CCCGGU", "6-mer enrichment (R)": 0.991}
